Measured values pooled from the literature.
Parts stem from different laboratories: compare values within a part only.

Study 1
Target: Fragile X messenger ribonucleoprotein 1, C-terminal low-complexity region (Fmr1, Mus musculus, UniProt P35922)
Technique: RNA Bind-n-Seq
Molecule type: RNA
Sample: in vitro
Tested at: 200 nM
Notes: whole 134-nt RNA, ends assumed
With: 150 mM LiCl
Relative to: input library
Direction: higher = stronger binding
Library: 7-deaza-guanosine replaces G
With `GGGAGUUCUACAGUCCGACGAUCACCAUGCAGGUGGGCAUCUUUGGGAAGUGGGGCAAGGGGGGGAUAGGGAGGGGGGUAACCCUUUGGGAACAGGUGGUCCCAGGUCGUUUCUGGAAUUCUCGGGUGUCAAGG` the log2 enrichment was 0.866.
The log2 enrichment of `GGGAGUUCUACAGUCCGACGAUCUCCUUUUUUUUUUUCUUUGAAUGUAUUUAUUUCUUGUAGUCUACUGGUGCUGUUGUGACGGAGAGCCAGACGUACAAAAACCGAGCUGGUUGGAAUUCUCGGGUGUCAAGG` is reported as 0.904.
With `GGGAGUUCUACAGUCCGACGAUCUGGGAGGUGGAUUUUGUUUAUUUUUUUAGCUCAUUUCCAGGGGUGGGAAUUUUGUUUUAAUAUGUGUCAUGAAUAAAGUUGUUUUUGAAAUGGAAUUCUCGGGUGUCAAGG` the log2 enrichment was -0.28.
`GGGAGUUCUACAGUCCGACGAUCUUUCUCUCACCAGGUACCAGGUCAUCAGUACACCAUCUGAUAUUUUCAUGGUGAUGGAAUAUGUCUCAGGAGGAGAGCUAUUUGAUUAUAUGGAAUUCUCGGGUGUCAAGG` gave a log2 enrichment of 1.28.
With `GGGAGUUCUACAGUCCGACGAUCUGGGAGGUGGAUUUUGUUUUUUUUUUUAGCUCAUUUCCAGGGGUGGGAAUUUUUUUUUAAUAUGUGUCAUGAAUAAAGUUGUUUUUGAAAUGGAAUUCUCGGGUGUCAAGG` the log2 enrichment was 0.386.
For `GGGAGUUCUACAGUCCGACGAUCUCAAUGCCGGCUAUGCCCUGGCCCCAGCCACCAGUGCCAACGACAGCGAGCAGCAGAGCCUGUCCAGCGAUGCAGACACCCUGUCCCUCAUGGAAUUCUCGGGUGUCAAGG`, the log2 enrichment was 0.257.

Study 2
Target: Interferon regulatory factor 7, full length, phosphomimetic (IRF7, Homo sapiens, UniProt Q92985, residues 1-503, S471D/S472D/S475D/S476D/S477D/S483D/S484D/S487D)
Technique: protein-binding microarray
Molecule type: double-stranded DNA, one strand shown
Sample: in vitro
Tested at: 2200 nM top
Notes: 60-bp whole probe
With: salmon DNA 0.4 mg/ml
Relative to: random background probes
Direction: higher = stronger binding
Shared flanks, not repeated: GCCTAGCAC … GTGCTAGGTCTTGATTCGCTTGACGCTGCTG
Construct (chain): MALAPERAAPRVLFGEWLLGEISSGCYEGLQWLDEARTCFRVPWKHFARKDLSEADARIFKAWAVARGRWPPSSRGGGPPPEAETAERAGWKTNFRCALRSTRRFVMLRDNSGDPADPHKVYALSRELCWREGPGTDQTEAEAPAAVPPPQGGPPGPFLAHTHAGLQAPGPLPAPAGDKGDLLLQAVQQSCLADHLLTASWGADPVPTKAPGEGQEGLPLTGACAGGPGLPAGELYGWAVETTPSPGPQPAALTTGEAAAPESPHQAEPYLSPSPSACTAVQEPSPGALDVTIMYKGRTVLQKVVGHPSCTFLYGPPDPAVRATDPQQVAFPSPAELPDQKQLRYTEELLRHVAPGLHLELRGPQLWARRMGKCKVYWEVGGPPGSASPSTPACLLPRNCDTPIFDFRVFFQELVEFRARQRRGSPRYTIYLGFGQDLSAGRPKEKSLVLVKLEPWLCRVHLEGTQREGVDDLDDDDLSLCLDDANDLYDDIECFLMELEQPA
Under “fitted relative affinity”, `ATAGATATCAGTTTCGATTA` is recorded as 5.96 z-score.
`TCCATTTTCTGAATGCCTTG`: “fitted relative affinity” 4.32 z-score.
`GACGAACTGAGTCTCGAGAC` — result for “fitted relative affinity”: 0.115 z-score.
For `ATTGCTTCCTCTTTCTCTGC`, “fitted relative affinity” read 3.04 z-score.
Under “fitted relative affinity”, `TTAGGTATCCTACTACTTTA` is recorded as 0.607 z-score.
`TCATTTCTGAATGTCCTACT` — result for “fitted relative affinity”: 2.31 z-score.
For `GACGGTTCCGGTTTCGGGAA`, “fitted relative affinity” read 4.52 z-score.
`TTACGTCTCGGTCTCGGTTA`: “fitted relative affinity” 1.9 z-score.

Study 3
Target: Histone acetyltransferase KAT6A, both winged helices, GST fusion (KAT6A, Homo sapiens, UniProt Q92794, residues 1-181)
Technique: protein binding microarray
Molecule type: double-stranded DNA, one strand shown
Sample: in vitro
Tested at: not given
Notes: 8-mer, flanks averaged, mean of 2 arrays, mostly near background
Relative to: not given
Direction: higher = stronger binding
Construct (chain): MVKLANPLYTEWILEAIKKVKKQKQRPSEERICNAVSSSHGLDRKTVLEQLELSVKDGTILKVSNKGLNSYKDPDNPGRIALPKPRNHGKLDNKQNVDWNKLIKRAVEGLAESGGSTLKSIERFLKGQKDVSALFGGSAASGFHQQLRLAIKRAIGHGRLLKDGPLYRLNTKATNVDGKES
The E-score of `GAATCAAA` is reported as -0.0156.
For `GACACGGC`, the E-score was 0.208.
For `GACACCGA`, the E-score was 0.0311.
With `AGAAGATA` the E-score was 0.071.
With `CGAAGGGA` the E-score was -0.171.

Other studies, line by line
The fold induction of `PhoQ, residues 284 288 289 292 302 303 TLMATV` is reported as 4.29 (PhoP, residues 12 14 15 18 19 AGCRL (Escherichia coli, UniProt P23836); Sort-seq, item: YFP reporter; E. coli; PhoQ-PhoP variant library, with: 10 µM Mg2+; relative to: high Mg2+ state, higher = stronger signaling).

Some of these lines once more (study 1):
The log2 enrichment of `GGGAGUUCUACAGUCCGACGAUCUCCUUUUUUUUUUUCUUUGAAUGUAUUUAUUUCUUGUAGUCUACUGGUGCUGUUGUGACGGAGAGCCAGACGUACAAAAACCGAGCUGGUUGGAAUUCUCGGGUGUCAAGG` is reported as 0.904.
With `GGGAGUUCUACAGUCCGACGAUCACCAUGCAGGUGGGCAUCUUUGGGAAGUGGGGCAAGGGGGGGAUAGGGAGGGGGGUAACCCUUUGGGAACAGGUGGUCCCAGGUCGUUUCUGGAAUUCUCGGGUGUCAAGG` the log2 enrichment was 0.866.
With `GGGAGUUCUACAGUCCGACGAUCUGGGAGGUGGAUUUUGUUUUUUUUUUUAGCUCAUUUCCAGGGGUGGGAAUUUUUUUUUAAUAUGUGUCAUGAAUAAAGUUGUUUUUGAAAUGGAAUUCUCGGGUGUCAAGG` the log2 enrichment was 0.386.
